# Published values pooled from the literature.
# Each line is one published result; not all experiments were run side by side. ± gives the spread as reported.
# Cell line: T47D
SMILES,assay,setting,how to read,quantity,value
Cn1cncc1C1=CN(c2ncnc3[nH]cnc23)CCS1,,,,GI50,10.7 µM
Cc1cc(=O)[nH]n1-c1nc(-c2ccc(Cl)cc2)c2c(NC(=O)c3ccccc3)nnc-2[nH]1,SRB,"10 µM, NCI60 single-dose screen",baseline: untreated,cell growth,102%
C#C[C@@]1(O)[C@@H](CO)O[C@@H](n2cc(F)c3c(N)ncnc32)[C@@H]1O,SRB,NCI-60 screen,,TGI,0.77 µM
CCCCN1CCN(c2ccc3[nH]c(-c4ccc5[nH]c(-c6ccc(OCC)cc6)nc5c4)nc3c2)CC1,SRB,"10 µM, 48 h",,growth percent,59.6%
CCC(=O)N1CCC(COCC(=O)N2CCN(c3nc(-c4cnc(N)nc4C(F)F)nc(N4CCOC[C@@H]4C)n3)CC2)CC1,"FOXO1 translocation, kinase translocation reporter",2 h,,IC50,0.121 µM
CCc1oc2cc(S(=O)(=O)Nc3ccc(S(=O)(=O)Nc4nccs4)cc3)ccc2c1C(=O)c1cc(Br)c(O)c(Br)c1,annexin V-FITC/PI flow cytometry,"40 µM, 72 h",,apoptotic cells,9.72 ± 2.94%
C=CC(=O)N1CCC(COCC(=O)N2CCN(c3nc(-c4cnc(N)nc4C(F)F)nc(N4CCOC[C@@H]4C)n3)CC2)CC1,cell growth,72 h,,GR50,0.8 nM
CCOc1ccc(-c2nc3cc(-c4nc5cc(N6CCN(C)CC6)ccc5[nH]4)ccc3[nH]2)cc1OCC,SRB,"10 µM, 48 h",,growth percent,15.2%
O=C1NC(c2ccccc2)(c2ccccc2)C(=O)N1Cc1cn(-c2c3ccccc3nc3ccccc23)nn1,NCI60 single-dose screen,10 µM,,growth percentage,63.6%
Cc1nc(NC(=O)N2CCC[C@H]2C(N)=O)sc1-c1ccnc(C(C)(C)C(F)(F)F)c1,"S6 phosphorylation, inhibitor, in-cell western, item: phospho-S6 Ser235/236",2 h,,IC50,0.0702 µM
Cc1cc(=O)[nH]c(=O)n1Cc1cn(-c2c3ccccc3nc3ccccc23)nn1,NCI60 single-dose screen,10 µM,,growth percentage,-5.5%
COC(=O)c1cc(C(C)=NNc2nc(-c3ccc4c(c3)OCCCO4)cs2)ccc1O,flow cytometry,"40 µM, 72 h",,cells in G1 phase,24.3 ± 2.1%
CCCCN1CCN(c2ccc3[nH]c(-c4ccc5[nH]c(-c6ccc(C(F)(F)F)cc6)nc5c4)nc3c2)CC1,SRB,"10 µM, 48 h",,growth percent,-37.3%
C[C@H](Nc1ccc2c(c1)OCCn1cc(N3C(=O)OC[C@H]3C(F)F)nc1-2)C(N)=O,"growth rate inhibition, CellTiter-Glo",120 h,,IC50,0.0274 µM
CCCN1CCN(c2ccc3[nH]c(-c4ccc5[nH]c(-c6cc(OC)c(OC)c(OC)c6)nc5c4)nc3c2)CC1,SRB,"10 µM, 48 h",,growth percent,65.9%
O=C1NCCc2[nH]c(-c3ccncc3)cc21,MTS,NCI60 panel,,IC50,> 10 µM
O=c1ccn(Cc2cn(-c3c4ccccc4nc4ccccc34)nn2)c(=O)[nH]1,NCI60 single-dose screen,10 µM,,growth percentage,38%
O=C(Nc1nnc2[nH]c(=S)[nH]c(-c3ccc(Cl)cc3)c1-2)c1ccccc1,SRB,"10 µM, NCI60 single-dose screen",baseline: untreated,cell growth,98.2%
C[C@H](Nc1ccc2c(c1)OCCn1cc(N3C(=O)OC[C@H]3C(F)F)nc1-2)C(N)=O,"Akt phosphorylation, inhibitor, in-cell western, item: Akt pSer473",2 h,,IC50,0.0073 µM
CSc1nc(-c2ccc(Cl)cc2)c2c(NC(=O)c3ccccc3)nnc-2[nH]1,SRB,"10 µM, NCI60 single-dose screen",baseline: untreated,cell growth,82.5%
CCC(=O)Nc1cc(Nc2cc(NC3CC3)n3ncc(C#N)c3n2)ccc1C,"cell growth, CellTiter-Glo",72 h,,IC50,1.2 to 2.8 µM
COc1ccc2[nH]cc(CCNC(C)=O)c2c1,,,,IC50,49.1 µM
O=C(Nc1nnc2n3c(nc(-c4ccc(Cl)cc4)c1-2)SCC3=O)c1ccccc1,SRB,"10 µM, NCI60 single-dose screen",baseline: untreated,cell growth,76.2%
CCCN1CCN(c2ccc3nc(-c4ccc5nc(-c6cc(OC)ccc6OC)[nH]c5c4)[nH]c3c2)CC1,SRB,"10 µM, 48 h",,growth percent,98.8%
O=C(/C=C/C=C/C=C/C1CCCCC1)NC1=C[C@@](O)(/C=C/C=C/C=C/C(=O)NC2=C(O)CCC2=O)[C@@H]2O[C@@H]2C1=O,"cell growth, CellTiter-Glo",78 h,,GI50,10.8 µM
Cc1cc(C)n(-c2nc(-c3ccc(Cl)cc3)c3c(NC(=O)c4ccccc4)nnc-3[nH]2)n1,SRB,"10 µM, NCI60 single-dose screen",baseline: untreated,cell growth,82.3%
Cc1cc(C)n(C(=S)[S][Au][PH](CCCCCC[PH]([Au][S]C(=S)n2nc(C)cc2C)(c2ccccc2)c2ccccc2)(c2ccccc2)c2ccccc2)n1,"cell growth, NCI-60 screen",breast cancer,,log10 TGI,> -4
CCCC(CCC)C(=O)OCc1cn(-c2c3ccccc3nc3ccccc23)nn1,NCI60 single-dose screen,10 µM,,growth percentage,93.5%
Cc1nc(NC(=O)N2CCC[C@H]2C(N)=O)sc1-c1ccnc(C(C)(C)C(F)(F)F)c1,"growth rate inhibition, CellTiter-Glo",120 h,,IC50,0.481 µM
Cc1n[nH]c2nc(-c3ccc(Cl)cc3)c3c(NC(=O)c4ccccc4)nnc-3n12,SRB,"10 µM, NCI60 single-dose screen",baseline: untreated,cell growth,97.6%
C#C[C@@]1(O)[C@@H](CO)O[C@@H](n2cc(Br)c3c(N)ncnc32)[C@@H]1O,SRB,NCI-60 screen,,TGI,0.177 µM
CN1CCN(c2ccc3[nH]c(-c4ccc5[nH]c(-c6ccc(C(F)(F)F)cc6)nc5c4)nc3c2)CC1,SRB,"10 µM, 48 h",,growth percent,58%

# For quick reference, copied from above:
SMILES,assay,setting,how to read,quantity,value
Cn1cncc1C1=CN(c2ncnc3[nH]cnc23)CCS1,,,,GI50,10.7 µM
Cc1cc(=O)[nH]n1-c1nc(-c2ccc(Cl)cc2)c2c(NC(=O)c3ccccc3)nnc-2[nH]1,SRB,"10 µM, NCI60 single-dose screen",baseline: untreated,cell growth,102%
C#C[C@@]1(O)[C@@H](CO)O[C@@H](n2cc(F)c3c(N)ncnc32)[C@@H]1O,SRB,NCI-60 screen,,TGI,0.77 µM
CCCCN1CCN(c2ccc3[nH]c(-c4ccc5[nH]c(-c6ccc(OCC)cc6)nc5c4)nc3c2)CC1,SRB,"10 µM, 48 h",,growth percent,59.6%
